Assay results pooled from the literature.
Compare with care: the assays were run in different laboratories. ± gives the spread as reported.
Target: Albumin (ALB, Homo sapiens, UniProt P02768)

| Compound | assay | test system | conditions | quantity | value |
| --- | --- | --- | --- | --- | --- |
| COc1cc(-c2[o+]c3cc(O)cc(O)c3cc2O[C@@H]2O[C@H](CO)[C@@H](O)[C@H](O)[C@H]2O)cc(O)c1O | binding, fluorescence quenching |  | pH 7, 40 °C, HSA 2 µM | Kd | 69.1 ± 4.58 µM |
| O=C1CCC(N2C(=O)c3cccc(NCC(=O)OCCCCc4cn(CCCCCCN5CCc6c(c7ccccc7n6Cc6ccc(C(=O)NO)cc6)C5)nn4)c3C2=O)C(=O)N1 (stereo not drawn) | HPLC on immobilised albumin column |  |  | fraction unbound | 0.033 |
| CN(CCOc1ccc(CC2SC(=O)NC2=O)cc1)c1ccccn1 (stereo not drawn) | equilibrium dialysis | human serum albumin 50 mg/mL | 6 h, 37 °C | fraction unbound | 0.039 |
| CC1(C)NC(=O)N(c2ccc(F)c(S(C)(=O)=O)c2)C1=O |  |  |  | unbound fraction | 0.941 |
| CCOc1ccc(-c2nc3ccc(-c4nc5ccc(N6CCN(C)CC6)cc5[nH]4)cc3[nH]2)cc1 |  | PBS | 1 µM, 1 h, added: 25 mg/mL albumin | fluorescence quantum yield | 0.082 ± 0.003 |
| O=S(=O)(c1ccc(F)cc1)N1CCNCC1COc1ccc2ccccc2c1 (stereo not drawn) | HPLC retention on immobilised albumin | human serum albumin column |  | fraction unbound | < 0.02 |
| CCS(=O)(=O)N1CCC2(CC1)NC(=O)N(c1ccc(F)c(C(F)(F)F)c1)C2=O |  |  |  | unbound fraction | 0.412 |
| Cc1cc(C)c(CNC(=O)c2cc(Cl)c3c(c2C)O[C@@](C)([C@H]2CC[C@H](N(C)C)CC2)O3)c(=O)[nH]1 | ultracentrifugation | 4% human serum albumin solution | 10000 ng/mL, 160 min | unbound fraction | 0.636 |
| CC1(C)NC(=O)N(c2ccc(F)c(CC(F)(F)F)c2)C1=O |  |  |  | unbound fraction | 0.646 |
| O=C(Nc1ccnc(C(F)(F)F)c1)Nc1cccc2c1OC(F)(F)O2 | HSA column HPLC |  |  | unbound fraction | 0.03 |
| O=C(CNc1cccc2c1C(=O)N(C1CCC(=O)NC1=O)C2=O)NCCCCCCN1CCc2c(c3ccccc3n2Cc2ccc(C(=O)NO)cc2)C1 (stereo not drawn) | HPLC on immobilised albumin column |  |  | fraction unbound | 0.033 |
| O=C1NC2(CCS(=O)(=O)CC2)C(=O)N1c1ccc(F)c(C(F)(F)F)c1 |  |  |  | unbound fraction | 0.748 |
| COc1cc(-c2[o+]c3cc(O)cc(O)c3cc2O[C@@H]2O[C@H](CO)[C@@H](O)[C@H](O)[C@H]2O)ccc1O | binding, fluorescence quenching |  | pH 7, 40 °C, HSA 2 µM | Kd | 85.2 ± 8.86 µM |
| O=C1CC[C@H](N2Cc3c(OCc4ccc(CN5CCOCC5)cc4)cccc3C2=O)C(=O)N1 | equilibrium dialysis | human serum albumin 50 mg/mL | 6 h, 37 °C | fraction unbound | 0.428 |
| CC1(C(F)(F)F)NC(=O)N(c2ccc(F)c(C(F)(F)F)c2)C1=O (stereo not drawn) |  | human plasma |  | fraction unbound | 0.085 |
| O=C(Nc1ccc(F)cc1)N1CCNCC1COc1ccc2c(c1)OCO2 (stereo not drawn) | HPLC retention on immobilised albumin | human serum albumin column |  | fraction unbound | ~0.1 |
| Cc1nc2cccc(N)c2c(=O)n1C1CCC(=O)NC1=O (stereo not drawn) | equilibrium dialysis | human serum albumin 50 mg/mL | 6 h, 37 °C | fraction unbound | 0.794 |
| CC1(C)NC(=O)N(c2ccc(F)c(OC(F)(F)F)c2)C1=O |  |  |  | unbound fraction | 0.483 |
| CN(CCCCCCNC(=O)COc1ccc(C2CCC(=O)NC2=O)cc1)Cc1cn(Cc2ccc(C(=O)NO)cc2)c2ccccc12 (stereo not drawn) | HPLC on immobilised albumin column |  |  | fraction unbound | 0.039 |
| Fc1ccc(N2CCNCC2COc2ccc3ccccc3c2)cc1 (stereo not drawn) | HPLC retention on immobilised albumin | human serum albumin column |  | fraction unbound | < 0.02 |
| OC[C@H]1O[C@@H](Oc2cc3c(O)cc(O)cc3[o+]c2-c2ccc(O)c(O)c2)[C@H](O)[C@@H](O)[C@@H]1O | visible absorption spectroscopy | acetonitrile–HSA system | 50 µM, pH 7, added: HSA 200 µM | λmax | 608 nm |
| CC1(C)NC(=O)N(c2ccc(F)c(F)c2)C1=O |  |  |  | unbound fraction | 0.873 |
| OC[C@H]1O[C@@H](Oc2cc3c(O)cc(O)cc3[o+]c2-c2ccc(O)cc2)[C@H](O)[C@@H](O)[C@@H]1O | binding, fluorescence quenching |  | pH 7, 20 °C, HSA 2 µM | Kd | 45.9 ± 1.2 µM |
| O=C(Nc1ccc2c(c1)B(O)OC2)Nc1ccc(F)c(C(F)(F)F)c1 | HSA column HPLC |  |  | unbound fraction | 0.033 |
